Experimental data pooled from the literature.
Lines come from different studies, so protocols differ. ± marks the error that the study gave.
UniProt P47746, sequence (whole entry, looked up): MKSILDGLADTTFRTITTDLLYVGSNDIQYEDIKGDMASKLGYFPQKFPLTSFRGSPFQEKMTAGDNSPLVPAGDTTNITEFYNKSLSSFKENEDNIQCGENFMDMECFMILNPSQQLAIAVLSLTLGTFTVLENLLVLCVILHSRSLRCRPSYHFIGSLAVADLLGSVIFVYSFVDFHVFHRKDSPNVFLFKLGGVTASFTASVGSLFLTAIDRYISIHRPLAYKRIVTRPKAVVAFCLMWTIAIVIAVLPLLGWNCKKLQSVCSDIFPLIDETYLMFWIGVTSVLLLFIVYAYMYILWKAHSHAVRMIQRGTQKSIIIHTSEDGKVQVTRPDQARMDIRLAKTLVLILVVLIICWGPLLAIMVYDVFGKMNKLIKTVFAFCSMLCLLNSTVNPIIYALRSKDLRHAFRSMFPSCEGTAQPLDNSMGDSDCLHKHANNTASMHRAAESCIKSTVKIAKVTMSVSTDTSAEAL
UniProt Q2FV99, sequence (whole entry, looked up): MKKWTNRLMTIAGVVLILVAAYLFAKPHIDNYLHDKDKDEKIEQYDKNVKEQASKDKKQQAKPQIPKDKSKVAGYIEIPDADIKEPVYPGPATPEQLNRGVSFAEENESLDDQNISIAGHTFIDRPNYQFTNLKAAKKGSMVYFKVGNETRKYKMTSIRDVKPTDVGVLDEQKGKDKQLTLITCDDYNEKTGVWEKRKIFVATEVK
UniProt P03303, sequence (whole entry, looked up): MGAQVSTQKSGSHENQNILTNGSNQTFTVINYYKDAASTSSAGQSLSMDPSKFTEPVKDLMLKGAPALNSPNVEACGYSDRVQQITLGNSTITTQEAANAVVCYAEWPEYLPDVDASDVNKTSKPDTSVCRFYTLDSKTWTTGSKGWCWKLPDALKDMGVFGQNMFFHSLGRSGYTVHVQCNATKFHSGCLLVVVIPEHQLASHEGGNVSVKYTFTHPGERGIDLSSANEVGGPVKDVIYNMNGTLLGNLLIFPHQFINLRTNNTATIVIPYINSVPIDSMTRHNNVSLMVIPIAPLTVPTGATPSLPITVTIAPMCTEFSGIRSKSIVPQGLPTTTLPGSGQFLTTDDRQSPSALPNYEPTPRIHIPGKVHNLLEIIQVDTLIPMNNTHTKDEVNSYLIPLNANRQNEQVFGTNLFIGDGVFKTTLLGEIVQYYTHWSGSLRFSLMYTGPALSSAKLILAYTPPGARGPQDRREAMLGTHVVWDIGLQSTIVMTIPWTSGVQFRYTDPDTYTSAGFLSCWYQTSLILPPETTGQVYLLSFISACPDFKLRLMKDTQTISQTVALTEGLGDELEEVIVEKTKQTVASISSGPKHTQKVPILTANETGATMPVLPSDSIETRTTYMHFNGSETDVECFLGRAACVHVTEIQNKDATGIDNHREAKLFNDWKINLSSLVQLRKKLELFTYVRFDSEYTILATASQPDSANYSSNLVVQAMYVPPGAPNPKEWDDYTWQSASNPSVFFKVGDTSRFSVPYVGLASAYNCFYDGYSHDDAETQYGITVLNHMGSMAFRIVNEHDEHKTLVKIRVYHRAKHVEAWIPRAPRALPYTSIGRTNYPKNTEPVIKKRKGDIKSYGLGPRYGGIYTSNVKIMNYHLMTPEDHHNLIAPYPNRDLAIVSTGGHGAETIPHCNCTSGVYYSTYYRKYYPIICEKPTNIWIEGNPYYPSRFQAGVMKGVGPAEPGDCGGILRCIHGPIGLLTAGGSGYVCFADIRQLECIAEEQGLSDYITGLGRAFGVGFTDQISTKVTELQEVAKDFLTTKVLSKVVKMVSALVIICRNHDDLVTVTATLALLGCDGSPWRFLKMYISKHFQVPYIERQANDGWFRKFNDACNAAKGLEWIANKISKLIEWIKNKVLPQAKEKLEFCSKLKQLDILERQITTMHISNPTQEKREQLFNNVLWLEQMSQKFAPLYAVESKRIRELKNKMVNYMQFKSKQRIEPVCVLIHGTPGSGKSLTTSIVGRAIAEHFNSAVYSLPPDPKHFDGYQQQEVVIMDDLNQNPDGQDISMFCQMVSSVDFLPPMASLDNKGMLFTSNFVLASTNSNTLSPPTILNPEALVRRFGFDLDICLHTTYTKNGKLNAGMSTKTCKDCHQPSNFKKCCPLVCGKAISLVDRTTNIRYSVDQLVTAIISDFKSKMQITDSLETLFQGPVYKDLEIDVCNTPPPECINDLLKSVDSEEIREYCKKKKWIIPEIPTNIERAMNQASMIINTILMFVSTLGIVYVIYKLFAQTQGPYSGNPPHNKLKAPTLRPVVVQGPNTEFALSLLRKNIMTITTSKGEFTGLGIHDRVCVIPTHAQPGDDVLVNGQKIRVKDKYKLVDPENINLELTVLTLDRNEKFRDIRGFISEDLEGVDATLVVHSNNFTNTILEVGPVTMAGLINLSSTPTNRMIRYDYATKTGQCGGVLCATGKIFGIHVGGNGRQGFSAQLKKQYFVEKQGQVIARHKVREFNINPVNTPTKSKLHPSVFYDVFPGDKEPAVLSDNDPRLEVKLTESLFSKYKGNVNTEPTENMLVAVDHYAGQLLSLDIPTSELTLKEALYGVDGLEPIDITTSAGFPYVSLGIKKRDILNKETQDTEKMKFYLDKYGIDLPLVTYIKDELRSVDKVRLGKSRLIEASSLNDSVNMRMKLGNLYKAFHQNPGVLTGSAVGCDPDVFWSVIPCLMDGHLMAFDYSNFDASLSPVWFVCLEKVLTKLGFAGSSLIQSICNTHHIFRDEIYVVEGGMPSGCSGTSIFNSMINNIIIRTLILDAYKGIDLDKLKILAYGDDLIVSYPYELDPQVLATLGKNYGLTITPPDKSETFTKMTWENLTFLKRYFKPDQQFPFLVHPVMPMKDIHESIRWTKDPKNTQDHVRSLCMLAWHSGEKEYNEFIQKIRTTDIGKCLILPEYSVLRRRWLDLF
UniProt P0C0V0, sequence (whole entry, unmodified, looked up): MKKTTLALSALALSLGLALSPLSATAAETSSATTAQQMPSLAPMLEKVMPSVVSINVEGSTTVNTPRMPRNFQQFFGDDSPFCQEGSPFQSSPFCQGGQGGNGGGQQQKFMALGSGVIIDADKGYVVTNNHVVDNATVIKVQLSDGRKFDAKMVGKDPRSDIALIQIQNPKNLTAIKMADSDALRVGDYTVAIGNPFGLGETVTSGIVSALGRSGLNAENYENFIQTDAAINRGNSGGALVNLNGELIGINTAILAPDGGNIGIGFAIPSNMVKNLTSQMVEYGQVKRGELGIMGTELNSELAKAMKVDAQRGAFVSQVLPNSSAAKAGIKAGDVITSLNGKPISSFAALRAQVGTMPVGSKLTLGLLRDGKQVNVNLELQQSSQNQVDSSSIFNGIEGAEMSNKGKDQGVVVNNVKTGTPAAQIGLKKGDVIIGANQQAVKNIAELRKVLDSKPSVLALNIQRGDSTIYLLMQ
UniProt P03372, sequence (whole entry, looked up): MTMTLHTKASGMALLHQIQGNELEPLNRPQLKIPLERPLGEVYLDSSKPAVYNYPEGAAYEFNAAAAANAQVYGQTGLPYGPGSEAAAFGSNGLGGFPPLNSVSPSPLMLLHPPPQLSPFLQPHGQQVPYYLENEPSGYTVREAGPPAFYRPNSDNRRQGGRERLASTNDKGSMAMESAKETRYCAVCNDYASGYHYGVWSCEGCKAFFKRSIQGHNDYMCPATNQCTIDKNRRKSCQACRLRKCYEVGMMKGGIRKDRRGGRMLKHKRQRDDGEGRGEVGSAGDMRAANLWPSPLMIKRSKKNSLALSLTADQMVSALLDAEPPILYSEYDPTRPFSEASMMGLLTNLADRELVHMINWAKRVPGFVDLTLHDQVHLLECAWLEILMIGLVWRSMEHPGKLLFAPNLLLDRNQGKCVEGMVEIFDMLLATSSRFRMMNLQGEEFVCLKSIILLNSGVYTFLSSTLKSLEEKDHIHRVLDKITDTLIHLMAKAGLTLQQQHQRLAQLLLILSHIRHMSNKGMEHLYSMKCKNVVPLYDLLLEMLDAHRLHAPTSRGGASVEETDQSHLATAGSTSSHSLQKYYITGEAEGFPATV
UniProt P9WGR1, sequence (whole entry, looked up): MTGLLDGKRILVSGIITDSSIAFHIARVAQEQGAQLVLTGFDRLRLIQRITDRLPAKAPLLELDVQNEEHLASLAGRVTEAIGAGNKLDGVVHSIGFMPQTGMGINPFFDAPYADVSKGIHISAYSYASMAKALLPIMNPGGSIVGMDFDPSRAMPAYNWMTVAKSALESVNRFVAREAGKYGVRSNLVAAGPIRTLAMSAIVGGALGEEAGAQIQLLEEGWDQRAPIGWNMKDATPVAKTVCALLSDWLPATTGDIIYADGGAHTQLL

Compound | target or system | test | test system | conditions | how to read | quantity | result
O=C1C(=Cc2cn(Cc3ccc(F)cc3)c3ccccc23)N2CCC1CC2 | Cnr1 (Mus musculus, UniProt P47746) | adenylyl cyclase activity | Neuro2A | 10 µM |  | inhibition | 55.5 ± 4.4%
CC[C@H](C)[C@H](NC(=O)CNC(=O)[C@H](CC(=O)O)NC(=O)[C@H](CC(C)C)NC(=O)[C@@H](NC(=O)[C@H](CC(N)=O)NC(=O)[C@H](CCC(N)=O)NC(=O)CNC(=O)[C@H](CC(C)C)NC(=O)[C@H](CCCCN)NC(=O)[C@H](CCC(=O)O)NC(=O)[C@@H](NC(=O)[C@H](CCCCN)NC(=O)[C@H](CCC(=O)O)NC(=O)[C@H](Cc1ccccc1)NC(=O)[C@H](CC(C)C)NC(=O)[C@H](CCCCN)NC(=O)[C@H](Cc1c[nH]c2ccccc12)NC(=O)[C@@H](N)CCC(=O)O)[C@@H](C)CC)[C@@H](C)CC)C(=O)N[C@H](C(=O)N[C@@H](CCCCN)C(=O)N[C@@H](CC(C)C)C(=O)NCC(=O)N1CCC[C@H]1C(=O)N[C@@H](CC(C)C)C(=O)N[C@@H](CC(C)C)C(=O)N[C@@H](C)C(=O)N[C@@H](CC(C)C)C(=O)N[C@@H](CC(C)C)C(=O)NCC(=O)N[C@@H](CCC(N)=O)C(=O)N[C@@H](CC(C)C)C(=O)N[C@H](C(=O)N[C@@H](CCC(N)=O)C(=O)N[C@H](C(=O)N[C@@H](C)C(=O)N[C@@H](CC(C)C)C(N)=O)[C@@H](C)CC)[C@@H](C)O)[C@@H](C)CC |  | membrane binding, stopped-flow FRET | POPC vesicles | pH 7.5, room temperature |  | koff | 7.5 s⁻¹
CC[C@H](C)[C@H](NC(=O)[C@H](CCCCN)NC(=O)CNC(=O)[C@@H](NC(=O)[C@@H](NC(=O)[C@H](CC(N)=O)NC(=O)[C@H](CC(=O)O)NC(=O)[C@@H](N)CC(=O)O)C(C)C)[C@@H](C)CC)C(=O)N[C@@H](Cc1c[nH]c2ccccc12)C(=O)N[C@@H](CO)C(=O)N[C@@H](CCCCN)C(=O)N[C@@H](CC(C)C)C(=O)N[C@H](C(=O)N[C@H](C(=O)N[C@H](C(=O)N[C@H](C(=O)N[C@H](C(=O)N[C@@H](CCCCN)C(=O)N[C@H](C(=O)N[C@@H](Cc1ccccc1)C(=O)N[C@H](C(=O)N[C@@H](CCCCN)C(=O)O)[C@@H](C)O)[C@@H](C)CC)[C@@H](C)O)[C@@H](C)CC)C(C)C)[C@@H](C)O)[C@@H](C)CC |  | lipid vesicle binding, stopped-flow FRET | POPC vesicles | pH 7.5 |  | kon | 11000 M^–1 s^–1
Cc1cc(C)nc(Sc2nc3sccn3c2[N+](=O)[O-])n1 | Genome polyprotein, 3C protease (rhinovirus B14, UniProt P03303) | protease activity, SAMDI-MS |  |  |  | Hill slope | 1.31
CCN(Cc1ccccc1)C(=O)CCc1nc(CN2CCN(C(=O)Cc3ccc(OC)c(OC)c3)CC2)no1 | SCN9A (Homo sapiens, UniProt Q15858) | whole-cell patch clamp | HEK stable | 300 nM |  | V1/2 of inactivation | -76 ± 6.81 mV
CC(C)C[C@H](NC(=O)[C@H](Cc1ccccc1)NC(=O)CNC(=O)CNC(=O)[C@@H](N)Cc1ccc(O)cc1)C(=O)O |  | K+ current, agonist, photo-uncaging | rat locus coeruleus neurons |  |  | delay to current onset | 50 to 100 ms
C=C(C)C1C2OC(=O)C1C1(O)CC3OC34C(=O)OC2C14C (stereo not drawn) | GABA-A receptor; GABA-A site (alpha1/beta2 interface) (Homo sapiens, UniProt P14867+P47870) | GABA-induced current, antagonist, two-electrode voltage clamp | Xenopus oocytes | added: GABA at EC50 |  | Hill coefficient | 1 ± 0.09
CC[C@H](C)[C@H](N)C(=O)N[C@H](C(=O)N[C@@H](CCCCN)C(=O)N[C@H](C(=O)N[C@H](C(=O)NCC(=O)N[C@@H](CC(=O)O)C(=O)N[C@@H](CC(C)C)C(=O)N[C@H](C(=O)N[C@@H](CCCCN)C(=O)N[C@@H](Cc1c[nH]c2ccccc12)C(=O)N[C@H](C(=O)N[C@H](C(=O)N[C@@H](CC(=O)O)C(=O)N[C@H](C(=O)N[C@H](C(=O)N[C@@H](CC(N)=O)C(=O)N[C@@H](CO)C(=O)N[C@@H](Cc1ccccc1)C(=O)N[C@H](C(=O)N[C@@H](CCCCN)C(=O)N[C@@H](CCCCN)C(=O)O)[C@@H](C)O)C(C)C)[C@@H](C)O)[C@@H](C)CC)[C@@H](C)CC)C(C)C)[C@@H](C)CC)[C@@H](C)O)[C@@H](C)CC |  | lipid vesicle dissociation | POPC vesicles | pH 7.5 |  | koff | 0.11 s^–1
CN(C)CCCN1c2ccccc2Sc2ccc(Cl)cc21 | srtA (Staphylococcus aureus, UniProt Q2FV99) | binding, fluorescence quenching |  |  |  | Stern-Volmer constant | 6300 L/mol
O=C(N=P12CN3CN(CN(C3)C1)C2)c1ccccn1.[Cl][Pd][Cl] | Albumin (ALB, Homo sapiens, UniProt P02768) | binding, circular dichroism |  | 20 h, pH 7.39, 37 °C |  | saturating equivalents | 4 equivalents
CCCCCCc1ccc(Oc2ccccc2Br)c(O)c1 | inhA (Mycobacterium tuberculosis, UniProt P9WGR1) | inhibitor |  |  | reference: k6 from global fit over koff | koff fold slower than k6 | 5 fold
CCOC(=O)C1C(OC(c2ccc(Cl)cc2)c2ccc(Cl)cc2)CC2CCC1N2C (single isomer, unassigned) | ATP-binding cassette sub-family C member 8 (ABCC8, Cricetus cricetus, UniProt Q09427) | binding, radioligand displacement |  | inactive if below 75% at 10000 nM, added: [3H]glyburide |  | Ki | inactive
CC[C@H](C)[C@H](N)C(=O)N[C@H](C(=O)NCC(=O)N[C@H](C(=O)N[C@H](C(=O)N[C@@H](CC(=O)O)C(=O)N[C@@H](CO)C(=O)N[C@@H](CC(C)C)C(=O)N[C@H](C(=O)N[C@@H](CCCCN)C(=O)N[C@@H](Cc1c[nH]c2ccccc12)C(=O)N[C@H](C(=O)N[C@H](C(=O)N[C@@H](CC(=O)O)C(=O)N[C@H](C(=O)N[C@H](C(=O)N[C@@H](CC(N)=O)C(=O)N[C@@H](CCCCN)C(=O)N[C@@H](Cc1ccccc1)C(=O)N[C@H](C(=O)N[C@@H](CCCCN)C(=O)N[C@@H](CCCCN)C(=O)O)[C@@H](C)O)C(C)C)[C@@H](C)O)[C@@H](C)CC)[C@@H](C)CC)C(C)C)[C@@H](C)CC)[C@@H](C)O)[C@@H](C)CC |  | lipid vesicle binding, stopped-flow FRET | POPC vesicles | pH 7.5 |  | kon | 12000 M^–1 s^–1
CC[C@H](C)[C@H](NC(=O)[C@H](CCC(N)=O)NC(=O)[C@H](CC(C)C)NC(=O)[C@@H](NC(=O)CNC(=O)[C@H](Cc1ccc(O)cc1)NC(=O)[C@H](CC(=O)O)NC(=O)[C@@H](NC(=O)[C@H](CO)NC(=O)CNC(=O)[C@H](CC(=O)O)NC(=O)[C@@H](NC(=O)[C@H](CC(N)=O)NC(=O)[C@H](CCCNC(=N)N)NC(=O)[C@H](CC(N)=O)NC(=O)[C@@H](NC(=O)[C@H](C)NC(=O)[C@H](CCC(N)=O)NC(=O)[C@@H](NC(=O)[C@H](CC(N)=O)NC(=O)[C@H](Cc1ccccc1)NC(=O)[C@H](CC(N)=O)NC(=O)[C@H](CO)NC(=O)[C@H](CCC(=O)O)NC(=O)[C@H](Cc1ccccc1)NC(=O)[C@H](CCCCN)NC(=O)[C@H](C)NC(=O)[C@H](C)NC(=O)[C@H](CO)NC(=O)[C@@H](NC(=O)[C@H](Cc1c[nH]c2ccccc12)NC(=O)[C@H](CC(N)=O)NC(=O)CNC(=O)[C@H](CC(C)C)NC(=O)[C@H](CO)NC(=O)[C@H](Cc1ccc(O)cc1)NC(=O)CNC(=O)[C@H](CCCNC(=N)N)NC(=O)[C@H](Cc1ccc(O)cc1)NC(=O)[C@H](CC(N)=O)NC(=O)[C@@H](N)CC(=O)O)C(C)C)[C@@H](C)O)[C@@H](C)O)[C@@H](C)O)[C@@H](C)O)[C@@H](C)CC)C(=O)O | Periplasmic serine endoprotease DegP (degP, Escherichia coli, UniProt P0C0V0, C83S/C95S/N322C) | cage assembly rate, FRET |  |  |  | Kapp | 7.6 ± 0.5 µM
CC[C@H](C)[C@H](N)C(=O)N[C@H](C(=O)N[C@@H](CO)C(=O)N[C@H](C(=O)N[C@H](C(=O)NCC(=O)N[C@@H](CC(=O)O)C(=O)N[C@@H](Cc1c[nH]c2ccccc12)C(=O)N[C@H](C(=O)N[C@@H](CCCCN)C(=O)N[C@@H](CC(C)C)C(=O)N[C@H](C(=O)N[C@H](C(=O)N[C@@H](CC(=O)O)C(=O)N[C@H](C(=O)N[C@H](C(=O)N[C@@H](CC(N)=O)C(=O)N[C@@H](CCCCN)C(=O)N[C@@H](Cc1ccccc1)C(=O)N[C@H](C(=O)N[C@@H](CCCCN)C(=O)N[C@@H](CCCCN)C(=O)O)[C@@H](C)O)C(C)C)[C@@H](C)O)[C@@H](C)CC)[C@@H](C)CC)C(C)C)[C@@H](C)CC)[C@@H](C)O)[C@@H](C)CC |  | lipid vesicle dissociation | POPC vesicles | pH 7.5 |  | koff | 2.2 s^–1
C[C@@](O)(C(F)F)[C@H](NC(=O)c1ccc(C#CC#CC2CC2)cc1)C(=O)NO | UDP-3-O-acyl-N-acetylglucosamine deacetylase (Escherichia coli K-12, UniProt P0A725) | enzyme activity, inhibitor |  |  |  | EI* complex half-life | ~2 h
CC(C)C[C@H](NC(=O)CNC(=O)[C@H](CCC(=O)O)NC(=O)[C@H](CCCCN)NC(=O)[C@H](CC(C)C)NC(=O)[C@H](C)NC(=O)[C@H](C)NC(=O)CNC(=O)[C@H](C)NC(=O)[C@H](CCCCN)NC(=O)[C@H](CCC(=O)O)NC(=O)[C@H](CC(C)C)NC(=O)[C@H](CCCCN)NC(=O)[C@H](CCCCN)NC(=O)[C@H](CC(C)C)NC(=O)[C@H](CC(C)C)NC(=O)[C@H](CCCCN)NC(=O)[C@H](Cc1c[nH]c2ccccc12)NC(=O)[C@@H](N)CCCCN)C(=O)N[C@@H](CC(C)C)C(=O)N[C@@H](CCCCN)C(=O)N[C@@H](C)C(=O)NCC(=O)N1CCC[C@H]1C(=O)N[C@@H](C)C(=O)N[C@@H](CC(C)C)C(=O)N[C@@H](C)C(=O)N[C@@H](CC(C)C)C(=O)N[C@@H](CC(C)C)C(=O)NCC(=O)N[C@@H](C)C(=O)N[C@@H](C)C(=O)N[C@@H](C)C(=O)N[C@@H](C)C(=O)N[C@@H](CC(C)C)C(=O)N[C@@H](C)C(=O)N[C@@H](CCCCN)C(N)=O |  | membrane binding, stopped-flow FRET | POPC vesicles | room temperature, extrapolated from POPC/POPG |  | koff | 140 s⁻¹
C=C(C)C(=O)Oc1ccc(C(C)(C)c2ccc(OC(=O)C(=C)C)cc2)cc1 | Estrogen receptor (ESR1, Homo sapiens, UniProt P03372) | reporter gene, agonist | MVLN | 24 h |  | LOEC | 5 µM

Excerpt of the above:
Compound | target or system | test | test system | conditions | how to read | quantity | result
CC[C@H](C)[C@H](NC(=O)[C@H](CCCCN)NC(=O)CNC(=O)[C@@H](NC(=O)[C@@H](NC(=O)[C@H](CC(N)=O)NC(=O)[C@H](CC(=O)O)NC(=O)[C@@H](N)CC(=O)O)C(C)C)[C@@H](C)CC)C(=O)N[C@@H](Cc1c[nH]c2ccccc12)C(=O)N[C@@H](CO)C(=O)N[C@@H](CCCCN)C(=O)N[C@@H](CC(C)C)C(=O)N[C@H](C(=O)N[C@H](C(=O)N[C@H](C(=O)N[C@H](C(=O)N[C@H](C(=O)N[C@@H](CCCCN)C(=O)N[C@H](C(=O)N[C@@H](Cc1ccccc1)C(=O)N[C@H](C(=O)N[C@@H](CCCCN)C(=O)O)[C@@H](C)O)[C@@H](C)CC)[C@@H](C)O)[C@@H](C)CC)C(C)C)[C@@H](C)O)[C@@H](C)CC |  | lipid vesicle binding, stopped-flow FRET | POPC vesicles | pH 7.5 |  | kon | 11000 M^–1 s^–1
